Earlier results that unrelated publications cite.
Protocols differ between the studies behind these lines. ± marks the error that the study gave.

| SMILES | cell line | assay | conditions | scale | quantity | result |
| --- | --- | --- | --- | --- | --- | --- |
| O=C(NCc1ccc(F)cc1F)c1cn2c(c(O)c1=O)C(=O)N(CCCCCCO)CC2 | HOS | ATP level, 50% ATP reduction |  |  | CC50 | > 250 µM |
| Cc1cc(N2CCC(CO)(C3CC3)C2=O)cc(C(=O)NCc2cc(F)cc(-c3cnn(C)c3)c2)n1 (centres unmarked) | ARPE-19 | cytotoxicity |  |  | CC50 | 1.12 µM |
| CC(=O)O[C@H]1C2=C(C(=O)C(OC(=O)c3ccc([N+](=O)[O-])cc3)=C(C(C)C)C2=O)[C@@]2(C)CCCC(C)(C)[C@@H]2[C@@H]1O | MOLT-3 |  |  |  | GI50 | 5 to 10 µM |
| CNc1c(C)n(C)n(-c2ccccc2)c1=O | primary human hepatocytes | refers to: CYP2B6 | concentration not given | reference: untreated | protein level | increased |
| CC(=O)O[C@@H]1C[C@H]2C(C)(C)[C@H](O)CC[C@]2(C)[C@H]2CC[C@]34C[C@]3(CC[C@H]4[C@@H](C)C[C@@H](O)[C@H](O)C(C)(C)O)[C@@]21C | KB |  | concentration not given |  | cytotoxicity | toxic |
| CCC(=O)OC1=C(C(C)C)C(=O)C2=C(C1=O)[C@@]1(C)CCCC(C)(C)[C@@H]1[C@H](OC(=O)CC)[C@H]2OC(C)=O | MEL1 |  |  |  | GI50 | 10 to 30 µM |
| COCCn1ccn2cc(C(=O)NCc3ccc(F)cc3F)c(=O)c(O)c2c1=O | HOS | ATP level, 50% ATP reduction |  |  | CC50 | > 250 µM |
| Cc1cc(N2CC[C@@](C#N)(C3(C)CC3)C2=O)cc(C(=O)NCc2cc(F)cc(-c3cnn(C)c3)c2)n1 | MDA-MB-231 | cytotoxicity |  |  | CC50 | 0.134 µM |
| Cn1c2cc([S+](C)[O-])sc2c2cnn(Cc3cccc(N)c3)c(=O)c21 (centres unmarked) | well-differentiated RPE cells |  | concentration not given |  | toxicity | not toxic |
| CCCC(=O)O[C@@H]1[C@@H](OC(C)=O)C2=C(C(=O)C(O)=C(C(C)C)C2=O)[C@@]2(C)CCCC(C)(C)[C@H]12 | MEL1 |  |  |  | GI50 | ≤ 5 µM |
| O=C(Cn1cc(CNC(=O)c2c3ccccc3nc3ccccc23)nn1)Nc1cccc(Br)c1 | MCF7 |  |  | no toxicity up to value | cytotoxicity | > 200 µM |
| OC[C@H]1O[C@@H](OCCCCCCCCCCC(F)(F)C(F)(F)C(F)(F)C(F)(F)F)[C@H](O)[C@@H](O)[C@@H]1O | B16-F10 | cytotoxicity, MTT | 24 h |  | EC50 | 32 µM |
| COc1ccc(-c2cccc(S(=O)(=O)N[C@@H](Cc3cccc(C(=N)N)c3)C(=O)N3CCN(C(=O)NC4CCCCC4)CC3)c2)c(OC)c1 | HIEC human intestinal epithelial cells |  | concentration not given |  | extracellular hydrogen peroxide | not detected |
| O=S(=O)(c1ccccc1)N1CCCCC1 | Caco-2 |  |  | reference: Papp B-A over Papp A-B | efflux ratio | 0.64 |
| CC(C)C1=C(O)C(=O)C2=C(C1=O)[C@H](O)[C@@H](O)[C@H]1C(C)(C)CCC[C@]21C | HCT-116 |  |  |  | GI50 | > 30 µM |
| O=C1c2ccccc2-c2c1c1ccc([N+](=O)[O-])cc1c(=O)n2C[C@H](O)CO | SF-539 | cell growth | CNS cancer panel |  | GI50 | 0.157 µM |
| COc1ccc(Oc2ccc([C@@H](C)N(C)c3ncc4c(N)nc(N)nc4n3)cc2)cc1 | primary mouse macrophages | cell growth |  |  | active concentration | 4 µM |
| CCOC(=O)C(CC)NC(=O)CN1C(=O)S/C(=C\c2ccc(C)cc2)C1=O (centres unmarked) | Caco-2 |  | concentration not given |  | cytotoxicity | not toxic |
| COCCN1CCn2cc(C(=O)NCc3ccc(F)cc3F)c(=O)c(O)c2C1=O | HOS | ATP level, 50% ATP reduction |  |  | CC50 | 138 ± 8.5 µM |
| CC(=O)O[C@H]1C2=C(C(=O)C(O)=C(C(C)C)C2=O)[C@@]2(C)CCCC(C)(C)[C@@H]2[C@@H]1O | MCF7 | cell growth |  |  | GI50 | 5 to 10 µM |
| O=c1c(O)ccccc1O | HepDES19 |  | up to 100 µM |  | cytotoxicity | not toxic |
| CC(=O)OC1=C(C(C)C)C(=O)C2=C(C1=O)[C@@]1(C)CCCC(C)(C)[C@@H]1[C@H](OC(C)=O)[C@H]2OC(C)=O | MEL1 |  |  |  | GI50 | 5 to 10 µM |
| CN1CCn2cc(C(=O)NCc3ccc(F)cc3F)c(=O)c(O)c2C1=O | HOS | ATP level, 50% ATP reduction |  |  | CC50 | > 250 µM |
| O=C1c2ccccc2-c2c1c1ccc([N+](=O)[O-])cc1c(=O)n2C[C@H](O)[C@@H](O)[C@H](O)[C@H](O)CO | MCF7 | cell growth | breast cancer panel |  | GI50 | 0.88 µM |
| COc1cncc(-c2cc(F)cc(CNC(=O)c3cc(N4CC[C@@](C#N)(C5CC5)C4=O)cc(C)n3)c2)c1 | MDA-MB-231 | cytotoxicity |  |  | CC50 | 0.393 µM |
| CCOC(=O)C(NC(=O)CN1C(=O)N/C(=C\c2ccc3c(c2)OCO3)C1=O)C(C)C (centres unmarked) | Caco-2 |  | concentration not given |  | cytotoxicity | not toxic |
| CC(C)=CCC[C@](C)(O)[C@H]1CC[C@]2(C)[C@@H]1[C@H](O)C[C@@H]1[C@@]3(C)CC[C@H](O)C(C)(C)[C@@H]3CC[C@]12C | human keratinocytes | cytotoxicity |  |  | NOAEL | 4 µM |
| CC(=O)O[C@@H]1[C@@H](OC(C)=O)C2=C(C(=O)C(O)=C(C(C)C)C2=O)[C@@]2(C)CCCC(C)(C)[C@H]12 | MEL1 |  |  |  | GI50 | 10 to 30 µM |
| COCCCCCCN1CCn2cc(C(=O)NCc3ccc(F)cc3F)c(=O)c(O)c2C1=O | HOS | ATP level, 50% ATP reduction |  |  | CC50 | > 250 µM |

A few entries again:
| SMILES | cell line | assay | conditions | scale | quantity | result |
| --- | --- | --- | --- | --- | --- | --- |
| Cc1cc(N2CCC(CO)(C3CC3)C2=O)cc(C(=O)NCc2cc(F)cc(-c3cnn(C)c3)c2)n1 (centres unmarked) | ARPE-19 | cytotoxicity |  |  | CC50 | 1.12 µM |
| CC(=O)O[C@H]1C2=C(C(=O)C(OC(=O)c3ccc([N+](=O)[O-])cc3)=C(C(C)C)C2=O)[C@@]2(C)CCCC(C)(C)[C@@H]2[C@@H]1O | MOLT-3 |  |  |  | GI50 | 5 to 10 µM |
| CNc1c(C)n(C)n(-c2ccccc2)c1=O | primary human hepatocytes | refers to: CYP2B6 | concentration not given | reference: untreated | protein level | increased |
| CC(=O)O[C@@H]1C[C@H]2C(C)(C)[C@H](O)CC[C@]2(C)[C@H]2CC[C@]34C[C@]3(CC[C@H]4[C@@H](C)C[C@@H](O)[C@H](O)C(C)(C)O)[C@@]21C | KB |  | concentration not given |  | cytotoxicity | toxic |
| CCC(=O)OC1=C(C(C)C)C(=O)C2=C(C1=O)[C@@]1(C)CCCC(C)(C)[C@@H]1[C@H](OC(=O)CC)[C@H]2OC(C)=O | MEL1 |  |  |  | GI50 | 10 to 30 µM |
